Assay results from different studies.
Protocols differ between the studies behind these lines. ± marks the error that the study gave.

CO[C@H]1/C=C/O[C@@]2(C)Oc3c(C)c(O)c4c(c3C2=O)C2=NC3(CCN(CC(C)C)CC3)NC2=C(NC(=O)/C(C)=C\C=C\[C@H](C)[C@H](O)[C@@H](C)[C@@H](O)[C@@H](C)[C@H](OC(C)=O)[C@@H]1C)C4=O — IC50 (Mycobacteroides abscessus; bacterial growth; subsp. massiliense 095 clinical isolate; mixed morphotype): 0.011 µM
C=CC(=O)N1CC/C(=C\c2ccc(F)c([N+](=O)[O-])c2)C(=O)/C(=C/c2ccc(F)c([N+](=O)[O-])c2)C1 — IC50 (herpes simplex virus 1; viral replication; K26, GFP-expressing, 3D bioprinted skin, submerged): 6.3 µM
Cc1cc(=O)c(-c2ccc(Oc3ccc(Cl)cc3Cl)cc2)c(C)[nH]1 — IC50 (Plasmodium yoelii; 17XL; 384-well): 0.564 ± 0.045 µM
CN(C)[C@@H]1C(O)=C(C(N)=O)C(=O)[C@@]2(O)C(O)=C3C(=O)c4c(O)ccc(Cl)c4[C@@](C)(O)[C@H]3C[C@@H]12 — IC50 (Trichomonas gallinae; CCK-8; trophozoites; 24 h): 16.5 µM
CN(C)c1ccc(C=CC(=O)NC(=O)c2ccccc2O)cc1 — IC50 (Plasmodium yoelii; 17XL; 384-well): 0.205 ± 0.058 µM
Cc1ncc([N+](=O)[O-])n1CCOC(=O)c1ccccc1 — IC50 (Trichomonas gallinae; CCK-8; trophozoites; 24 h): 5.08 µM
Cc1[nH]c2ccc(C#N)cc2c(=O)c1Br — IC50 (Plasmodium yoelii; 17XL; 384-well): 0.86 ± 0.761 µM
O=C(/C=C\n1cnc(-c2cc(C(F)(F)F)cc(C(F)(F)F)c2)n1)NNc1ccccn1 — IC50 (herpes simplex virus 1; viral replication; fibroblasts, K26, GFP-expressing): > 10 µM
O=C(Nc1ccc(Oc2ccc(Cl)cc2)c(Cl)c1)c1cc(I)cc(I)c1O — IC50 (Trichomonas gallinae; CCK-8; trophozoites; 24 h): 14.4 µM

For quick reference, copied from above:
Cc1cc(=O)c(-c2ccc(Oc3ccc(Cl)cc3Cl)cc2)c(C)[nH]1 — IC50 (Plasmodium yoelii; 17XL; 384-well): 0.564 ± 0.045 µM
